Results gathered from unrelated publications.
Each line is one published result; not all experiments were run side by side. ± marks the error that the study gave.
Organism: Candida albicans

OC(Cn1cncn1)(Cn1cncn1)c1ccc(F)cc1F — MIC (SP3902, RPMI MOPS; 48 h, 37 °C): 16 µM
CCCCCOc1ccc(-c2ccc(-c3ccc(C(=O)N[C@H]4C[C@@H](O)[C@@H](OCC[N+](C)(C)C)NC(=O)[C@@H]5[C@@H](O)[C@@H](C)CN5C(=O)[C@H]([C@@H](C)O)NC(=O)[C@H]([C@H](O)[C@@H](O)c5ccc(O)cc5)NC(=O)[C@@H]5C[C@@H](O)CN5C(=O)[C@H]([C@@H](C)O)NC4=O)cc3)cc2)cc1 — MIC (CLSI broth microdilution; 98-210): 0.016 µg/mL
C[C@@H]1[C@H](O)[C@@H](C)/C=C/C=C/C=C/C=C/C=C/C=C/C=C/[C@H](O[C@@H]2O[C@H](C)[C@@H](O)[C@H](N)[C@@H]2O)C[C@@H]2O[C@](O)(C[C@@H](O)C[C@@H](O)[C@H](O)CC[C@@H](O)C[C@@H](O)CC(=O)O[C@H]1C)C[C@H](O)[C@H]2C(=O)O — MIC (56214 clinical isolate, fluconazole-resistant, RPMI-MOPS; 48 h, 37 °C): 1 µM
O=C1/C(=C/c2ccc3ccccc3c2O)NC(=S)N1c1ccccc1 — inhibition zone diameter (ATCC 10231; concentration not given): 25 ± 0.82 mm
CO[C@H]1[C@H](O[C@H]([C@H]2O[C@@H](n3ccc(=O)[nH]c3=O)[C@H](O)[C@@H]2O)[C@H](NCCCNC(=O)[C@@H](NC(=O)[C@@H](NC(=O)N[C@H](C(=O)O)C(C)C)[C@@H]2CCN=C(N)N2)[C@@H](O)C(C)C)C(=O)O)O[C@H](CN)[C@H]1O — MIC50 (alamar blue; 18 M): > 35 µg/mL
OC(Cn1cncn1)(Cn1cncn1)c1ccc(F)cc1F — biofilm mass reduction (XTT, preformed biofilm; ATCC 60193; 2 × MIC, 24 h): 65 to 68%
CC(=O)ON=C1C=CC(=C(C#N)c2ccccc2)C=C1 — growth (planktonic growth; Sabouraud glucose broth; 2 µg/mL, 30 °C, at MIC): inhibited
C(=N\Nc1ccccc1)/c1ccc(-c2ccc(/C=N/Nc3ccccc3)cc2)cc1 — selectivity index (ATCC MYA-2876 susceptible; baseline: mammalian CC50 over MIC): < 0.6
O=C1C(Br)=C(Br)C(=O)c2ccccc21 — MIC change (ATCC 60193; concentration not given, 24 h, 35 °C, no effect, with: exogenous ergosterol): no effect
CC(=O)C1=NN(c2ccc([N+](=O)[O-])cc2)C(=C(C#N)C(=O)c2ccc(Nc3cnccn3)cc2)S1 — inhibition zone diameter (ATCC 10231; concentration not given): 46 mm
COc1ccc(/C=C2\NC(=S)N(c3ccccc3)C2=O)c(OC)c1 — inhibition zone diameter (ATCC 10231; concentration not given): 11 ± 0.5 mm
Fc1ccccc1N/N=C/c1ccc(-c2cccc(/C=N/Nc3ccccc3F)c2)cc1 — selectivity index (ATCC MYA-1237 resistant; baseline: mammalian CC50 over MIC): < 0.5
CC(C)c1ccc(/C=C2\N=C(SCC(=O)c3ccccc3)N(c3ccccc3)C2=O)cc1 — inhibition zone diameter (ATCC 10231; concentration not given): 12 ± 0.05 mm
OC(Cn1cncn1)(Cn1cncn1)c1ccc(F)cc1F — MIC (broth microdilution; 30; 24 h, compound alone): 1 µg/mL

Some of these lines once more:
CC(=O)C1=NN(c2ccc([N+](=O)[O-])cc2)C(=C(C#N)C(=O)c2ccc(Nc3cnccn3)cc2)S1 — inhibition zone diameter (ATCC 10231; concentration not given): 46 mm
CC(C)c1ccc(/C=C2\N=C(SCC(=O)c3ccccc3)N(c3ccccc3)C2=O)cc1 — inhibition zone diameter (ATCC 10231; concentration not given): 12 ± 0.05 mm
